Measurements gathered from unrelated publications.
Parts stem from different laboratories: compare values within a part only.

Series 1 — method: RNA Bind-n-Seq; molecule type: RNA; medium: in vitro; concentration: not given; baseline: input RNA pool; reading: higher = stronger binding; quantity: bound/input enrichment
Target: RING finger protein unkempt homolog, zinc fingers 1-6, GST-SBP tag (UNK, Homo sapiens, UniProt Q9C0B0, residues 30-357)
Notes: RNA with constant flanks, human and mouse sites, ends assumed
Target sequence (chain): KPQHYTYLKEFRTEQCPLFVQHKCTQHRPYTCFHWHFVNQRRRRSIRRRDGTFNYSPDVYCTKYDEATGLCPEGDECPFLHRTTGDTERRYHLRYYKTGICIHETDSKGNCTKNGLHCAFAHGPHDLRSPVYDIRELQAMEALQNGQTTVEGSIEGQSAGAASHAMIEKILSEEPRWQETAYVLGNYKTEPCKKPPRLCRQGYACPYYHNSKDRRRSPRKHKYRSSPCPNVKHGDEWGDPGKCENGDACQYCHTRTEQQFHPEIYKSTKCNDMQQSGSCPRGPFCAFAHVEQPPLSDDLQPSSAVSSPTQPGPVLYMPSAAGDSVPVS
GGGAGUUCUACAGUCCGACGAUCAUUUUCUUACUGGCUAGAGUUCUUGGUGGAGAAGUUGCAUAUGGCCAAGUUCUUGGAGUUAUAGGAUAUUCAUUACUUCCUCUCAUUGUAAUAGCCCCUAUACUUUUGGUGGUUGGAUCUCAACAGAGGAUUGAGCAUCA: 0.528 ratio
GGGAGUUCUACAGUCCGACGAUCUGAAACCUUUGGAUAGGGGAAAAAAUUAUAUAUAUAUAUAUUUUUUUGUUCUGUUUGCAUUUCUUAAUUUGUGCUUGGAAUGUGUUGAUGUGCACAGCUAAUGAUUCAAUGCGAGACAAGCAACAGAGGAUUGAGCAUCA: 0.391 ratio
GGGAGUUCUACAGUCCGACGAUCAAGUCAGCAGCACAAGCCAGACGCCGGCUGAUGAGUGGAAAAGUCAAAGUGUGGGGAAAUGUGGUUACAGUAGAGUGGGCUGACCCCGUGGAGGAGCCGGAUCCAGAAGUCAUGGCAAAGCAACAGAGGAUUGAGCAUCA: 0.39 ratio
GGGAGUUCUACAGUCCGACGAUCGCUGUGACCCAGAAUAAAACUAAUAUUUCAACAGCAAGUGCCACAGUUUCUGCUGCCACUAGUACUGAAAGCAUUUCUACUAGGAAAGUAUUGCCAAUGUCCAUUGCUAGACAUAAUAUACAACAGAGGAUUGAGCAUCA: 1.31 ratio
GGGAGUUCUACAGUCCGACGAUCAGGAAACAUCUUCUGCAUUUCAAAGUCCUCACUUUGACUUAUUUGGCCUUCAUCUUGGCAUGGAAGGUGGCAGGCAGAAUGGAAAUACUCCCCCCAAACAGAACAGAUAUUCUUGCGUGUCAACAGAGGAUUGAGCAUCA: 0.255 ratio
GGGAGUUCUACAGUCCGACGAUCGAGGCACAUCCUCACUGUAAACAGUAAUGCUAUAUGCAUGAAGCUUCUGUUUAUUGUUUUCCAUAUUUAAGGAAACAACAUCCCAUAAUAGAAAUGAGCAUGCAGGGCUAAGGCAUAUAGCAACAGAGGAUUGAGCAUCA: 0.232 ratio
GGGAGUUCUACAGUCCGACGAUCCUUGUGGGGUUAAGGGGUAGAACCUAUCUUGCCUUCACUCUCAAGAUAACGACUCAAAUUAAGCUUUUUGAGCACCACUCUUGUGGGGACACACAUACGCUGAUCUAGGAAUGAAAUCUUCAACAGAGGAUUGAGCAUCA: 0.345 ratio
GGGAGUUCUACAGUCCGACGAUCCAGUUGAAGACAGAGAAGGAUGAAAAGGAACUUUAUAAGGUACAUUUGAAGAAUACAGAAAUAGAAAAUACCAAGCUUAUGUCAGAGGUCCAGACUUUAAAAAAUUUAGAUGGGAACAAACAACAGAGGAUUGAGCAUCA: 2.77 ratio
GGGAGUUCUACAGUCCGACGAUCGCACAACGGGUGGCAGCCUGGACGCCUGGCCCCGCCAGCAACAGGGAAGCAGCCACAGCCAGCACCAGCCGGGCAGCCUACCAGGCAGCCAUCCGGGGUGUGGGCAGUGCUCAGAGCCGGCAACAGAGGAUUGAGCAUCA: 0.0686 ratio

Series 2 — method: protein binding microarray; molecule type: double-stranded DNA, one strand shown; medium: in vitro; concentration: not given; baseline: not given; reading: higher = stronger binding; quantity: E-score
Target: Histone acetyltransferase KAT6A, winged helix 1, GST fusion (KAT6A, Homo sapiens, UniProt Q92794, residues 1-85)
Notes: 8-mer, flanks averaged, mean of 2 arrays, mostly near background
Construct (chain): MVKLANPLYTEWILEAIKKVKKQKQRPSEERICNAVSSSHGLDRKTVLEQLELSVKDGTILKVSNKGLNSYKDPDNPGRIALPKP
AACCGTGG: -0.00189
CCATAAAA: -0.146
ATGGCGTC: 0.138
ATGAATAA: -0.212
ACCTTTGC: -0.111
CAACTCGC: 0.00199
CGAGCTAC: -0.0049
CGAGCTAG: -0.0141

Series 3 — method: universal PBM; molecule type: double-stranded DNA, one strand shown; medium: in vitro; concentration: 600 nM; reading: higher = stronger binding; quantity: E-score
Target: Sal-like protein 4, full length isoform A (SALL4, Homo sapiens, UniProt Q9UJQ4, residues 1-1053)
Sequence of UniProt Q9UJQ4 (whole entry, looked up): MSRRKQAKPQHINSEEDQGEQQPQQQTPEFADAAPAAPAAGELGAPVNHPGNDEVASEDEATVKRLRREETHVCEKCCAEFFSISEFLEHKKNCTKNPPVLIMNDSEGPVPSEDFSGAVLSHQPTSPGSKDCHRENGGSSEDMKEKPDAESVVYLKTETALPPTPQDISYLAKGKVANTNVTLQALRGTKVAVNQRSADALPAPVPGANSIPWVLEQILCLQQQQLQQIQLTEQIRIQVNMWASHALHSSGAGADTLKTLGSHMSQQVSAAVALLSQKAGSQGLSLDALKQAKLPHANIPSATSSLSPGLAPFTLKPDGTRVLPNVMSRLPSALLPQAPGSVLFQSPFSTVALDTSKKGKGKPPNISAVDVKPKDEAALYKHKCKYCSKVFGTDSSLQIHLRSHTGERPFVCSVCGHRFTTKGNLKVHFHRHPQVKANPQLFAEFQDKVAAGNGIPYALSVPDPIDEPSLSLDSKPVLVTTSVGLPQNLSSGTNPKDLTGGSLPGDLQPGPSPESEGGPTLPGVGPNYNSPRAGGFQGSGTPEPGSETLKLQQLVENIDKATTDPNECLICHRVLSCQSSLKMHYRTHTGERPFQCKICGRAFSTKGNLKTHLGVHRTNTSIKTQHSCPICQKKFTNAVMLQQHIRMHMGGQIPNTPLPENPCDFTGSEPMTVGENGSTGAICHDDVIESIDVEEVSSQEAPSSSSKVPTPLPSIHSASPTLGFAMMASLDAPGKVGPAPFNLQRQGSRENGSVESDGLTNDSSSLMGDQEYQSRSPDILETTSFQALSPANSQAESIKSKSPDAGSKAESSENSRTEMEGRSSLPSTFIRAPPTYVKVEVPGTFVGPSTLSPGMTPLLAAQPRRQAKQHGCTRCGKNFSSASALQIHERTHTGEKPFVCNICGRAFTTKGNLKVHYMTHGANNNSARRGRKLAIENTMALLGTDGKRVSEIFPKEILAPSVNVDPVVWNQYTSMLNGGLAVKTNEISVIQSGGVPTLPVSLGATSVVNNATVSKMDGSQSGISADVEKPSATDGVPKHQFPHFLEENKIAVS
Notes: 8-mer, flanks averaged, mean of replicates
GAAGAGGC: -0.0313
ATGATCAT: 0.235
GAGCAATA: 0.166
AAATCGAT: 0.193
ACGGTTGG: -0.186
CACCCTAC: -0.0948
AGGTGGAC: -0.221
AGCCCTCC: -0.358
ACGAGCGC: -0.206
TAACATTA: 0.364

Other studies, line by line — target: human cyclin A2; effect on: peptide binding; method: competitive growth sequencing; molecule type: peptide; organism: Saccharomyces cerevisiae; strain: cyclin A2-Cln2 fusion strain; concentration: concentration not given; baseline: unfused Cln2 strain; reading: direction not given
APPRKALFTYPKG — binding score: 1.36
GSPLAKAFTSTGL — binding score (mutational scanning library 1): -0.358

A few entries again (series 1):
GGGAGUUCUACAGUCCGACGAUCUGAAACCUUUGGAUAGGGGAAAAAAUUAUAUAUAUAUAUAUUUUUUUGUUCUGUUUGCAUUUCUUAAUUUGUGCUUGGAAUGUGUUGAUGUGCACAGCUAAUGAUUCAAUGCGAGACAAGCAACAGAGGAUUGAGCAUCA: 0.391 ratio
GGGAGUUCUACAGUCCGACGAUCCAGUUGAAGACAGAGAAGGAUGAAAAGGAACUUUAUAAGGUACAUUUGAAGAAUACAGAAAUAGAAAAUACCAAGCUUAUGUCAGAGGUCCAGACUUUAAAAAAUUUAGAUGGGAACAAACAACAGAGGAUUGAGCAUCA: 2.77 ratio
